Results of several laboratories.
“And” joins repeats or separate records; there may be more than shown. Numbers after ± are the reported error.
CHRM5: Muscarinic acetylcholine receptor M5 (CHRM5, Homo sapiens, UniProt P08912)
Chain of UniProt P08912 (whole entry, looked up): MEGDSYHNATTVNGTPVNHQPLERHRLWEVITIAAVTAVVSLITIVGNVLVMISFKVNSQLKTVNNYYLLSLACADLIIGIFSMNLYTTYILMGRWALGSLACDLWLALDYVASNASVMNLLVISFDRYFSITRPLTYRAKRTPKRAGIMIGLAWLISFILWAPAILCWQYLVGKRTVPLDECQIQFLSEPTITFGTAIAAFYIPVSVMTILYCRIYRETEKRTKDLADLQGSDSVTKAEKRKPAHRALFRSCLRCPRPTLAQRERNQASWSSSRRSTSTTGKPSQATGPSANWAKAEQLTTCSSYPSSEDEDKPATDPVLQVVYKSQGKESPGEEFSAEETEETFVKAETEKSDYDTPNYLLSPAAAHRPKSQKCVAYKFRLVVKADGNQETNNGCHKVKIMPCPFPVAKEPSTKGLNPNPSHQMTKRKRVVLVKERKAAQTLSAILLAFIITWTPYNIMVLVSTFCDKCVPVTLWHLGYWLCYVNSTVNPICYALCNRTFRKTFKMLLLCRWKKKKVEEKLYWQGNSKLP
CASP3: Caspase-3 (CASP3, Homo sapiens, UniProt P42574)
Chain of UniProt P42574 (whole entry, looked up): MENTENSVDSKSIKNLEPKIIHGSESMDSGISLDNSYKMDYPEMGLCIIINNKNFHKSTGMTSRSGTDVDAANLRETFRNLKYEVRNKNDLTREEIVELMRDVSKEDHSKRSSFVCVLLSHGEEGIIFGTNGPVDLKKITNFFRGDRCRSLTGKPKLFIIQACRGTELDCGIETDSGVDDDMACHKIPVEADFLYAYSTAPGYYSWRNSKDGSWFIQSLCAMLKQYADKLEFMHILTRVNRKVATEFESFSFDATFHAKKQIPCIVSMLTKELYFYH
CHRM1: Muscarinic acetylcholine receptor M1 (CHRM1, Homo sapiens, UniProt P11229)
Chain of UniProt Q12908 (whole entry, looked up): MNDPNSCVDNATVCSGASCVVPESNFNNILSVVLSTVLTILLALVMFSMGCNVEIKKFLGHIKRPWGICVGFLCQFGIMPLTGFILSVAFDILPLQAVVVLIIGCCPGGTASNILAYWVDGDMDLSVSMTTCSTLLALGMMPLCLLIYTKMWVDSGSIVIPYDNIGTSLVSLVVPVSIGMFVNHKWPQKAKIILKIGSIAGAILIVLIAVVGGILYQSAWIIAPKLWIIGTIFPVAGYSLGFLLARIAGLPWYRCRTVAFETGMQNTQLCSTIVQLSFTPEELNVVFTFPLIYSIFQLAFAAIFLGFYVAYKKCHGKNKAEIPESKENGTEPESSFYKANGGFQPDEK
Chain of UniProt P11229 (whole entry, looked up): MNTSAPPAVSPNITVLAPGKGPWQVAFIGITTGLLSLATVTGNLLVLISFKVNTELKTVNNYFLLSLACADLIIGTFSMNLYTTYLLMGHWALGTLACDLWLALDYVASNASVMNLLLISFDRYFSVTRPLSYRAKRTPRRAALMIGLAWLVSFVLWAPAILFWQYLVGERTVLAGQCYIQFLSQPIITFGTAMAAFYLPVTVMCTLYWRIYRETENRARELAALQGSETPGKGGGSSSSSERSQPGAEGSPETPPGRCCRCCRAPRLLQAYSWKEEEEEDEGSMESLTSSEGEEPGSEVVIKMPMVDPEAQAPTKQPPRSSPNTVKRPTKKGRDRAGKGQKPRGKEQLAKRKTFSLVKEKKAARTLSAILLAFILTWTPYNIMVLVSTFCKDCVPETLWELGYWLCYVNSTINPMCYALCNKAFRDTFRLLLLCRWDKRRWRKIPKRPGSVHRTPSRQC
Chain of UniProt P07550 (whole entry, looked up): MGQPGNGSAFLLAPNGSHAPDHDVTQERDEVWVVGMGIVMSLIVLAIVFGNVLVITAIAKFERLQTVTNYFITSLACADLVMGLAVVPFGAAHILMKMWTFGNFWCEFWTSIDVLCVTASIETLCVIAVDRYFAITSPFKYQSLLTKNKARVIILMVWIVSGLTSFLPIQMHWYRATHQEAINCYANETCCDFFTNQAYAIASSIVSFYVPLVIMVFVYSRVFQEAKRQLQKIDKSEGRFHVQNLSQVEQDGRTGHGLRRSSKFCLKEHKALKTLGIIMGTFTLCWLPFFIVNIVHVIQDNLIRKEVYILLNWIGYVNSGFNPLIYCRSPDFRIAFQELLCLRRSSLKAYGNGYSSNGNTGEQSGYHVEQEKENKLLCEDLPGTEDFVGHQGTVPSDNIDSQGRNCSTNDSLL
Chain of UniProt P27338 (whole entry, looked up): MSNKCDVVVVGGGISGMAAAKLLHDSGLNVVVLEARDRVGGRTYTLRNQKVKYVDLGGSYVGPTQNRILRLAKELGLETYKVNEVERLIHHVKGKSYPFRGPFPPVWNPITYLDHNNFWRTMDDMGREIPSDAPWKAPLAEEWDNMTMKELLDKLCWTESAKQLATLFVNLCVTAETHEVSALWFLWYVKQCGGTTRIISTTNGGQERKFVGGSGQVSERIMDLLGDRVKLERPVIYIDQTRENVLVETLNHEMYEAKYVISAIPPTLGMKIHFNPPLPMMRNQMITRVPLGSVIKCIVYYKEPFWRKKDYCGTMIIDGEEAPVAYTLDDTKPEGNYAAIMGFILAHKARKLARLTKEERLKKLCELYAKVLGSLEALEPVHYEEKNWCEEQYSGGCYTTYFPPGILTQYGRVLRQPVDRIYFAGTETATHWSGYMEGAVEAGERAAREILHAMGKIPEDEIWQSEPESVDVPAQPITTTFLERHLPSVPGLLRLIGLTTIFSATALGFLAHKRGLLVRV
Chain of UniProt Q9R0C9 (whole entry, looked up): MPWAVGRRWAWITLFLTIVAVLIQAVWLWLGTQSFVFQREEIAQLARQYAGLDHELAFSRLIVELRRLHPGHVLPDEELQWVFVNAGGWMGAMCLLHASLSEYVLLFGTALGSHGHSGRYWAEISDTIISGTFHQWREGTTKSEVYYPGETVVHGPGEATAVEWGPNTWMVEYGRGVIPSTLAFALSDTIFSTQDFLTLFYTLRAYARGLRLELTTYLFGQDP
Chain of UniProt P42229 (whole entry, looked up): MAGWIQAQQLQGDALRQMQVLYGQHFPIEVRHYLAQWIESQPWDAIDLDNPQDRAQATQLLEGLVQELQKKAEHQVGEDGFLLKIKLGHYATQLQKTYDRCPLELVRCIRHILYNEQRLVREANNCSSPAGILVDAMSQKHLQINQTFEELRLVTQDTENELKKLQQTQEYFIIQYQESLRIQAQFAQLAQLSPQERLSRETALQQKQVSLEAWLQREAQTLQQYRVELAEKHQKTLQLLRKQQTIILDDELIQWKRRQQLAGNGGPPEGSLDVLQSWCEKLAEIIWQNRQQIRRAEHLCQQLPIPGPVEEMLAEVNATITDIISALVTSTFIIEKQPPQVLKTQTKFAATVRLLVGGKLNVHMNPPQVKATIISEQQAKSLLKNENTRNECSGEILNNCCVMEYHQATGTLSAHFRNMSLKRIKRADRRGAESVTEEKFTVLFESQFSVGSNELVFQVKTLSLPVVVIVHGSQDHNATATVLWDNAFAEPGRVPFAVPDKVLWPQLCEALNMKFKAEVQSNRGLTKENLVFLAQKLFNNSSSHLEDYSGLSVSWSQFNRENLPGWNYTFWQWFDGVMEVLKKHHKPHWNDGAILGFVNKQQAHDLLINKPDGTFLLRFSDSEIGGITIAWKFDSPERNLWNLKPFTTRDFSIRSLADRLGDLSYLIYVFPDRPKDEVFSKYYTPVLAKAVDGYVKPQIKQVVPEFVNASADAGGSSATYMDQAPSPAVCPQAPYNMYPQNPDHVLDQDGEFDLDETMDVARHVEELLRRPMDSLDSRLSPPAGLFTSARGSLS
Chain of UniProt P30542 (whole entry, looked up): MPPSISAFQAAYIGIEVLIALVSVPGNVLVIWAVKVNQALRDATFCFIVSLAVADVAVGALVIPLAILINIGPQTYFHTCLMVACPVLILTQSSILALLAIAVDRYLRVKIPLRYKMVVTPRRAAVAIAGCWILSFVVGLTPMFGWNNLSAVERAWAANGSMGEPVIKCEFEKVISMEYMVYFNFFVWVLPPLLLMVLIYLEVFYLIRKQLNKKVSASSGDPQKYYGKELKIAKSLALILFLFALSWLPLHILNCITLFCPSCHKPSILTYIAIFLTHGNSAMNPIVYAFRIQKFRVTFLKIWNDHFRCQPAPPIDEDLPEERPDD
Chain of UniProt P07288 (whole entry, looked up): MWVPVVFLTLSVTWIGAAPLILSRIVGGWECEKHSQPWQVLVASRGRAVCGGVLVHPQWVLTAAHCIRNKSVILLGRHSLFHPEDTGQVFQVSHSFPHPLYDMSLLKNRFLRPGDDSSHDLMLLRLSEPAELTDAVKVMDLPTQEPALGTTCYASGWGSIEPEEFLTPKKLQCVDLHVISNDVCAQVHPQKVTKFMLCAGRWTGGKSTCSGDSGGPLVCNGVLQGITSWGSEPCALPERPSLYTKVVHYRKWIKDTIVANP
Chain of UniProt P48067 (whole entry, looked up): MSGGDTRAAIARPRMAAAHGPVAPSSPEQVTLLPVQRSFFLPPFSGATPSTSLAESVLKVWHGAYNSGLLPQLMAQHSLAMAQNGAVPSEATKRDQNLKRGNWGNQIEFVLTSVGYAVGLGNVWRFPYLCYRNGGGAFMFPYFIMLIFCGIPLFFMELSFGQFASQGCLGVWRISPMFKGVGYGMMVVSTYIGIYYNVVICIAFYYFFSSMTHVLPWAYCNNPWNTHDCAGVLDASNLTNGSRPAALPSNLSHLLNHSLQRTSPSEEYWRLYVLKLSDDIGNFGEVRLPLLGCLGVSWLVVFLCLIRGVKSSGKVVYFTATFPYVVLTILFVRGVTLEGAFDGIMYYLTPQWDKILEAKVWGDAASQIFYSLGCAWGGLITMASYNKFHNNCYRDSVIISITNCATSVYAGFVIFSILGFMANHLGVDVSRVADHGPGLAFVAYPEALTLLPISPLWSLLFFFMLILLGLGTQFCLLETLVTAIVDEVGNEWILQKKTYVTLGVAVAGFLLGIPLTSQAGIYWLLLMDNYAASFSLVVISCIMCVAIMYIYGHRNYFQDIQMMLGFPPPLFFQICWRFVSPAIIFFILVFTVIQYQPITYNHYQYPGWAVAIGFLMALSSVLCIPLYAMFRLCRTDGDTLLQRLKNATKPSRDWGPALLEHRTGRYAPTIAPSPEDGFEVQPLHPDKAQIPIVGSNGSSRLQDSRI

The tissue uptake of [64Cu+2].c1cnc(CNCc2ccc(CN3CCCN4CCNCCCN(CC4)CC3)cc2)nc1 is reported as 5.69 ± 0.23 %ID/g (CXCR4; NOD/SCID mouse, U87 and U87-stb-CXCR4 xenografts, lungs; iv, 450 min, ex vivo).
CC[C@H]1[C@@H](O)[C@@H]2[C@H](CC[C@]3(C)[C@@H]([C@H](C)CCOS(=O)(=O)[O-])CC[C@@H]23)[C@@]2(C)CC[C@@H](O)C[C@@H]12.[Na+] gave a plasma AST of 447 ± 38.8 U/L (ob/ob NASH mice, plasma; oral, 3 mg/kg once daily, 8 wk).
CC1(C)NC(N)=Nc2nc3cc(Cl)c(Cl)cc3n21 has a Ki of 1070 nM (Bifunctional dihydrofolate reductase-thymidylate synthase, DHFR domain (Trypanosoma cruzi, UniProt Q27793); enzyme activity, competitive inhibitor; together with: dihydrofolate 60 µM, NADPH 100 µM).
The Kb of CCCCOc1ccc(C(=O)OCCN2CC=CCC2)cc1 is reported as 19500 nM (CHRM5; inositol phosphate accumulation, antagonist, Schild analysis; CHO; together with: carbachol).
For COc1ccc(NC(=O)CC[C@H](NC(=O)CC[C@@H](C)[C@H]2CC[C@H]3[C@@H]4[C@H](O)C[C@@H]5C[C@H](O)CC[C@]5(C)[C@H]4CC[C@]23C)C(=O)O)cn1, the Ki was 8940 nM and < 10000 nM (Ileal sodium/bile acid cotransporter (SLC10A2, Homo sapiens, UniProt Q12908); taurocholate uptake, inhibitor; ASBT-MDCK; 10 min, together with: taurocholate 2.5 µM).
The Ki of CC(=O)N[C@H](C(=O)N[C@@H](CCCNC(=N)N)C(=O)N[C@H](C=O)CC(=O)O)[C@@H](C)O is reported as greater than 100000 nM (CASP3; enzyme activity, inhibitor, fluorescence; pH 7).
With CC(C)C[C@@H](C=O)NC(=O)[C@@H]1CCCN1C(=O)[C@H](CCCCN)NC(=O)[C@H](CO)NC(=O)[C@H](CO)NC(=O)OCc1ccccc1 the Ki was greater than 500000 nM (Prostate-specific antigen (Homo sapiens, UniProt P07288); enzyme activity, inhibitor, fluorescence; pH 7.8).
With C=C=C(CN1CCCC(C(=O)O)C1)C(c1ccc(OC)cc1)(c1ccc(OC)cc1)c1ccc(OC)cc1 (centres unmarked) the Ki was 141 nM (Sodium- and chloride-dependent glycine transporter 1 (SLC6A9, Homo sapiens, UniProt P48067); cell-free assay, mass spectrometry).
For CC(=O)N[C@@H](CC(=O)O)C(=O)N[C@@H](CCCNC(=N)N)C(=O)N[C@H](C(=O)N[C@H](C=O)CC(=O)O)[C@@H](C)O, the Ki was 81.3 nM (CASP3; enzyme activity, inhibitor, fluorescence; pH 7).
The Ki of NCC1Cc2cccc(-c3cncc(N)c3)c2O1 (centres unmarked) is reported as 3160 nM (Beta-2 adrenergic receptor (ADRB2, Homo sapiens, UniProt P07550); binding, radioligand displacement; SNAP-tagged receptor HEK membranes; together with: 1 nM [3H]dihydroalprenolol).
The Ki of C/C(=N\OCCCN(C)Cc1ccccc1)c1ccc(C(F)(F)F)cc1 is reported as 15.6 ± 1.4 nM (Sigma non-opioid intracellular receptor 1 (Sigmar1, Rattus norvegicus, UniProt Q9R0C9); binding).
For CC(=O)N[C@@H](CC(=O)O)C(=O)N[C@@H](CCCNC(=N)N)C(=O)N[C@@H](C)C(=O)N[C@H](C=O)CC(=O)O, the Ki was 214 nM (CASP3; enzyme activity, inhibitor, fluorescence; pH 7).
O=C(OC1CCN(CCOCCOCCN2CCC(OC(=O)C(c3ccccc3)c3ccccc3)CC2)CC1)C(c1ccccc1)c1ccccc1 gave a Ki of 257 nM (CHRM1; ligand displacement, radioligand).
O=C(CCCCc1ccc(OP(=O)(O)O)c(OP(=O)(O)O)c1)N1CCCCC1 has a Ki of 21000 nM (Signal transducer and activator of transcription 5A, SH2 (Homo sapiens, UniProt P42229); ligand displacement, FP).
CCCCCCOc1ccc(C(=O)OCC[N+]2(C)CC=CCC2)cc1 (centres unmarked) gave a Kb of 49 nM (CHRM5; inositol phosphate accumulation, antagonist, Schild analysis; CHO; together with: carbachol).
The Ki of CN1CCC=C(c2nsnc2OCCCN2CCN(CCCCC3CCN(CC(=O)N4c5ccccc5NC(=O)c5ccccc54)CC3)CC(N)C2)C1 (centres unmarked) is reported as 4.47 nM (CHRM1; ligand displacement, radioligand).
COc1ccc(-c2nc(CSc3nc(N)c(C#N)c(-c4ccc5c(c4)OCO5)c3C#N)cs2)cc1 has a Ki of 1.6 nM (Adenosine receptor A1 (ADORA1, Homo sapiens, UniProt P30542); ligand displacement, radioligand; cell membranes).
With O=C1Nc2ccccc2N(C(=O)CN2CCC(CCCCN3CCC(OC(=O)C(c4ccccc4)c4ccccc4)CC3)CC2)c2ccccc21 the Ki was 53.7 nM (CHRM5; ligand displacement, radioligand).
The hemolysis of NS(=O)(=O)c1ccc(NC(=O)NN[C@@H]2O[C@H](CO)[C@@H](O)[C@H](O)[C@H]2O)cc1 is reported as 0% (rabbit erythrocytes; 64 µg/mL, 3 h; baseline: complete lysis).
COc1ccc(CCCN[C@@H]2CCC[C@H]2CN[C@@H]2CCC[C@H]2CNCCCCN[C@@H]2CCC[C@H]2CN)cc1 gave a Ki of greater than 500000 nM (Amine oxidase [flavin-containing] B (MAOB, Homo sapiens, UniProt P27338); enzyme activity, inhibitor).

A few entries again:
O=C(OC1CCN(CCOCCOCCN2CCC(OC(=O)C(c3ccccc3)c3ccccc3)CC2)CC1)C(c1ccccc1)c1ccccc1 gave a Ki of 257 nM (CHRM1; ligand displacement, radioligand).
O=C(CCCCc1ccc(OP(=O)(O)O)c(OP(=O)(O)O)c1)N1CCCCC1 has a Ki of 21000 nM (Signal transducer and activator of transcription 5A, SH2 (Homo sapiens, UniProt P42229); ligand displacement, FP).
